Results from different studies.
Protocols differ between the studies behind these lines. Numbers after ± are the reported error.

Compound	test system	conditions	tissue uptake [%ID/g]
CN(C)c1ccc(-c2nc3ccc(OCCCCCN4CCN5CCN(CC4)CC(=O)[O][Al]([18F])[O]C(=O)C5)cc3s2)cc1	ICR mouse, bone	intravenous, 30 min	1.38 ± 0.45
CCCC[C@H](NC(=O)CNC(=O)CNC(=O)CN1CCN(CC(=O)O)CCN(CC(=O)O)CCN(CC(=O)O)CC1)C(=O)N[C@H]1CC(=O)NCCCC[C@@H](C(N)=O)NC(=O)[C@H](Cc2c[nH]c3ccccc23)NC(=O)[C@H](CCCNC(=N)N)NC(=O)[C@@H](Cc2ccccc2)NC(=O)[C@H](Cc2c[nH]cn2)NC1=O [copper-64 labelled]	female C57 mouse, B16/F1 melanoma, kidneys	intravenous, 0.037 MBq, 2 h	9.3 ± 2.81
CN1C(=O)[C@@H](Cc2ccc(O)c(I)c2)NC(=O)CNC(=O)[C@H](Cc2ccc3ccccc3c2)NC(=O)[C@H](CCCNC(=N)N)NC(=O)[C@H]1CCCNC(=O)c1ccc(CNC(=O)CN2CCN(CC(=O)O)CCN(CC(=O)O)CCN(CC(=O)O)CC2)cc1 [lutetium-177 labelled]	female CB-17 SCID mouse, Daudi xenograft, pancreas	intravenous, 6 h, CXCR4 blocking, added: AMD3100 2 mg/kg coinjected	0.1 ± 0.002
CC(C)[C@H](NC(=O)[C@@H]1CCCN1C(=O)[C@H](CCCNC(=N)N)NC(=O)[C@H](CS)NC(=O)[C@H](Cc1c[nH]c2ccccc12)NC(=O)[C@H](CCCNC(=N)N)NC(=O)[C@@H](Cc1ccccc1)NC(=O)[C@H](Cc1c[nH]cn1)NC(=O)[C@H](CCC(=O)O)NC(=O)[C@H](CS)NC(=O)[C@H](CS)NC(=O)CNC(=O)[C@@H]1CC(=O)N[C@@H](CCCNC(=N)N)C(=O)NCC(=O)N[C@@H](CC(=O)O)C(=O)N[C@H](Cc2ccc(O)cc2)C(=O)N1)C(N)=O [technetium-99m labelled]	C57 mouse, female, B16/F1 melanoma, pancreas	intravenous, 0.037 MBq, 2 h	0.33 ± 0.11
CCCC[C@H](NC(=O)CNC(=O)CNC(=O)CN1CCN(CC(=O)O)CCN(CC(=O)O)CCN(CC(=O)O)CC1)C(=O)N[C@H]1CC(=O)NCCCC[C@@H](C(N)=O)NC(=O)[C@H](Cc2c[nH]c3ccccc23)NC(=O)[C@H](CCCNC(=N)N)NC(=O)[C@@H](Cc2ccccc2)NC(=O)[C@H](Cc2c[nH]cn2)NC1=O [lead-203 labelled]	C57 mouse, muscle	intravenous, 0.056 MBq, 4 h	0.01 ± 0.01
O=C([O-])CN1CCN(CC(=O)[O-])CCN(CC(=O)NCCc2ccc3c(c2)C2C=CCC2C(c2cc4c(cc2Br)OCO4)N3)CCN(CC(=O)[O-])CC1.[111In+3] (centres unmarked)	mouse, Hec50 endometrial tumour, muscle	2 h post injection	0.13 ± 0.06
CCCC[C@H](NC(=O)CNC(=O)CNC(=O)CN1CCN(CC(=O)O)CCN(CC(=O)O)CC1)C(=O)N[C@H]1CC(=O)NCCCC[C@@H](C(N)=O)NC(=O)[C@H](Cc2c[nH]c3ccccc23)NC(=O)[C@H](CCCNC(=N)N)NC(=O)[C@@H](Cc2ccccc2)NC(=O)[C@H](Cc2c[nH]cn2)NC1=O [copper-64 labelled]	female C57 mouse, B16/F1 melanoma, lung	intravenous, 0.037 MBq, 2 h	0.56 ± 0.09
CC(C)[C@H](NC(=O)[C@@H]1CCCN1C(=O)[C@H](CCCNC(=N)N)NC(=O)[C@H](CS)NC(=O)[C@H](Cc1c[nH]c2ccccc12)NC(=O)[C@H](CCCNC(=N)N)NC(=O)[C@@H](Cc1ccccc1)NC(=O)[C@H](Cc1c[nH]cn1)NC(=O)[C@H](CCC(=O)O)NC(=O)[C@H](CS)NC(=O)[C@H](CS)NC(=O)[C@@H]1CC(=O)N[C@@H](CCCNC(=N)N)C(=O)NCC(=O)N[C@@H](CC(=O)O)C(=O)N[C@H](Cc2ccc(O)cc2)C(=O)N1)C(N)=O [technetium-99m labelled]	C57 mouse, female, B16/F1 melanoma, blood	intravenous, 0.037 MBq, 24 h	0.08 ± 0.07
